# Experimental data from different studies.
# Numbered parts are unrelated; each lists some results of a single study.
# UniProt P41595, sequence (whole entry, looked up): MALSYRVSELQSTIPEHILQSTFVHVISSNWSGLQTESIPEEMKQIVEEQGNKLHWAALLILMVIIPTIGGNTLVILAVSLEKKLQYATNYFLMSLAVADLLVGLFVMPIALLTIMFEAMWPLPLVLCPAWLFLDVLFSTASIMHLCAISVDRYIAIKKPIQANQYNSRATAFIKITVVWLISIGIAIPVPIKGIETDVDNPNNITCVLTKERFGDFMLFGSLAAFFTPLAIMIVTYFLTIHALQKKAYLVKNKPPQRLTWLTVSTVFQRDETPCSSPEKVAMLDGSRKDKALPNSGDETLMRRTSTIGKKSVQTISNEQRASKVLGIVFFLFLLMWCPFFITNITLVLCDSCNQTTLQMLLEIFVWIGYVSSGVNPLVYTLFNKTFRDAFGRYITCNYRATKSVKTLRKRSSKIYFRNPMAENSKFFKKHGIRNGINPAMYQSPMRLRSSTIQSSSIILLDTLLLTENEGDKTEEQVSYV
# UniProt P47898, sequence (whole entry, looked up): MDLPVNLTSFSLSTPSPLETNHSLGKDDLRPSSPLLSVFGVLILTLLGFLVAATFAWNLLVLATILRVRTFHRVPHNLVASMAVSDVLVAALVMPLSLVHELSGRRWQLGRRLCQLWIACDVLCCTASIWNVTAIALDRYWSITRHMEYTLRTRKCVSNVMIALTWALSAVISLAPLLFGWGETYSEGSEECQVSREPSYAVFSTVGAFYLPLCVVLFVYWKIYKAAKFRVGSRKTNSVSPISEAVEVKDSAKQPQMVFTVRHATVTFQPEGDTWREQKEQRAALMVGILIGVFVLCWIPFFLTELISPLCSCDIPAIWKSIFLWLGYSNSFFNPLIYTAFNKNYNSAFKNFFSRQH

# Block 1
# SMILES: CC(=O)N[C@@H](Cc1c[nH]c2ccccc12)C(=O)N[C@@H](CCC(=O)C=[N+]=[N-])C(=O)OC(C)C
# Sample: EL4 tumour
# Dose: dose not given
# Relative to: vehicle
test,test system,log2 fold change
refers to: N-acetylputrescine,"mouse, EL4 tumour-bearing",0.344
refers to: TMP,"mouse, EL4 tumour-bearing",-0.593
refers to: imidazole lactate,Mus musculus,-1.13
refers to: pyrraline,"mouse, EL4 tumour-bearing",-1.01
refers to: trans-urocanate,"mouse, EL4 tumour-bearing",0.637
refers to: methylsuccinate,"mouse, EL4 tumour-bearing",2.58
refers to: N('1)-acetylspermidine,"mouse, EL4 tumour-bearing",-0.04

# Block 2
# Target: Calcium/calmodulin-dependent protein kinase type II subunit gamma (CAMK2G, Homo sapiens, UniProt Q13555)
# UniProt Q13555, sequence (whole entry, looked up): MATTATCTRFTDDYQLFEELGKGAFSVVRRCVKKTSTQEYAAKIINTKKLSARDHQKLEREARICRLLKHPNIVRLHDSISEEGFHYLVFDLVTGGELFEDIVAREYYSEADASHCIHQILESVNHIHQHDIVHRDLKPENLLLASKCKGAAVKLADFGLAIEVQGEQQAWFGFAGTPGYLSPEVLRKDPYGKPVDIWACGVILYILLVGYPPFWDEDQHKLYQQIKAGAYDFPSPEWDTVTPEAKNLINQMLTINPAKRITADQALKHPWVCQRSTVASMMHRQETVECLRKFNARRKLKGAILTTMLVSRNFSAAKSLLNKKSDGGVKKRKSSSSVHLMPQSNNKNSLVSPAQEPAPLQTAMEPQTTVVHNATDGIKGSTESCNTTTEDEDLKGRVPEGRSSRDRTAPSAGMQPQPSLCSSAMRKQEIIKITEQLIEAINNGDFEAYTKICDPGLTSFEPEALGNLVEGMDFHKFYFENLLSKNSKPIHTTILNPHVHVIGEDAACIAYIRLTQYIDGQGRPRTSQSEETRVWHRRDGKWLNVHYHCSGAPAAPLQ
# Effect on: enzyme activity
# Action: inhibitor
# Concentration: 0.5 µM
# Relative to: control
SMILES,remaining activity [%]
c1ccc(-c2[nH]ncc2-c2ccnc3ccccc23)nc1,85.9
Cc1cn(-c2cc(NC(=O)c3ccc(C)c(Nc4nccc(-c5cccnc5)n4)c3)cc(C(F)(F)F)c2)cn1,111
COc1cc2ncnc(Nc3ccc(O)c(Br)c3)c2cc1OC,95.2
Nc1cccc(-c2cc3c(Oc4cccc(O)c4)ncnc3[nH]2)c1,105
O=C1C(Cl)=C(N2C(=O)CCC2=O)C(=O)c2ccccc21,104
Cn1nc2c3c(cccc31)C(=O)c1ccccc1-2,109
COc1cc2c(cc1OC)-c1[nH]nc(Nc3cccc(F)c3)c1C2,101
COc1cc2ncnc(Nc3cccc(Cl)c3)c2cc1OC,97.3
Cc1nc2cc3nc(-c4cccs4)cnc3cc2n1C,101
O=C(Nc1cccc(Nc2nccc(Nc3cccc(C(F)(F)F)c3)n2)c1)C1CC1,108
Cc1cc2ncc(-c3ccccc3)nc2cc1C,105
CCN(CC)C(=O)c1ccc(Nc2nc(OCC3CCCCC3)c3[nH]cnc3n2)cc1,95.2
O=C1Nc2ccc(Cl)cc2C1=Cc1cc(Cl)c(O)c(Cl)c1,119
N#Cc1c(NC(=O)c2cccc3ccccc23)sc2c1CCCC2,99.6
O=C(NC(NC(=S)Nc1ccc(F)c([N+](=O)[O-])c1)C(Cl)(Cl)Cl)C(c1ccccc1)c1ccccc1 (centres unmarked),107
N#C/C(=C\c1ccc(O)c(O)c1)C(=O)NCc1ccccc1,94.1
O=C1c2ccccc2-c2n[nH]c3cccc1c23,91.1
CCN(CC)CCNC(=O)c1c(C)[nH]c(/C=C2\C(=O)Nc3ccc(Cl)cc32)c1C,8.13
O=c1cc(-c2cccc3c2Sc2ccccc2S3)oc(N2CCOCC2)c1,106
CN(C)C[C@H]1CCn2c(c(C3=C(c4cn(C)c5ccccc45)C(=O)NC3=O)c3ccccc32)C1,100
c1ccc(-c2cnc(Nc3ccc(OCCN4CCCC4)cc3)s2)cc1,66.9
CCN(CC)CCNC(=O)c1c(C)[nH]c(/C=C2\C(=O)Nc3ccc(F)cc32)c1C,25.1
Ic1cccc(CSc2nnc(-c3ccncc3)o2)c1,96.8

# Block 3
# Compound: COc1cc(C(=O)N2CCC(N3CCN(C)CC3)CC2)ccc1Nc1ncc2c(n1)N(C)c1ccccc1C(=O)N2C
# Method: KINOMEscan
# Concentration: 10 µM
# Relative to: DMSO control
# Reading: lower = stronger binding
target,binding
ERK3,100%
STK16,62%
TGFBR1,100%
RIPK1,99%
EPHA2,92%
CDK3,100%
AKT3,100%
RIPK4,74%
DDR2,100%

# Block 4
# Target: His6 tag
# Method: AlphaScreen counter screen
# Concentration: concentration not given
SMILES,inhibition
Cl.O=S(=O)(c1cccc2c(Cl)cccc12)N1CCCNCC1,6.45%
Cc1ccc(Nc2ncc(-c3ccncc3)n3ccnc23)cc1,-7.5%
COc1cc2c(Nc3ccc(Br)cc3F)ncnc2cc1OCC1CCN(C)CC1,3.7%
COc1cc2ncn(-c3cc(OCc4ccccc4C(F)(F)F)c(C(N)=O)s3)c2cc1OC,-4.65%
C#Cc1cccc(Nc2ncnc3cc4c(cc23)OCCOCCOCCO4)c1,5.25%
O=c1[nH]cnc2scc(-c3ccc(F)cc3)c12,-5.1%
COc1ccccc1OCC(=O)NNC(=O)c1ccc(Cl)cc1,3.35%
N=C(N)NCCNS(=O)(=O)c1cccc2cnccc12,7.05%

# Other studies, line by line
SMILES,target,test,setting,quantity,result
O=C(O)c1cc(-c2ccc(C3CCNCC3)cc2)c2ccc(-c3ccc(C(F)(F)F)cc3)cc2c1,"5-hydroxytryptamine receptor 5A (HTR5A, Homo sapiens, UniProt P47898)",ligand displacement,10 µM,inhibition,4.98%
CCS(=O)(=O)c1cc2cc(C[C@](O)(CC(C)(C)c3ccc(F)cc3C(N)=O)C(F)(F)F)[nH]c2cn1,"STE20/SPS1-related proline-alanine-rich protein kinase (STK39, Homo sapiens, UniProt Q9UEW8)","cell-free assay, competition with immobilised ligand",1 µM,remaining binding,100%
COc1cccc(NC(=O)c2nc3scc(CN(C)Cc4ccccc4)c3c(=O)[nH]2)c1,"5-hydroxytryptamine receptor 2B (HTR2B, Homo sapiens, UniProt P41595)","binding, radioligand binding",,Ki,1.6 µM

# Repeated from above (block 2):
SMILES,remaining activity [%]
c1ccc(-c2[nH]ncc2-c2ccnc3ccccc23)nc1,85.9
COc1cc2c(cc1OC)-c1[nH]nc(Nc3cccc(F)c3)c1C2,101
O=c1cc(-c2cccc3c2Sc2ccccc2S3)oc(N2CCOCC2)c1,106
Ic1cccc(CSc2nnc(-c3ccncc3)o2)c1,96.8
O=C(NC(NC(=S)Nc1ccc(F)c([N+](=O)[O-])c1)C(Cl)(Cl)Cl)C(c1ccccc1)c1ccccc1 (centres unmarked),107
N#C/C(=C\c1ccc(O)c(O)c1)C(=O)NCc1ccccc1,94.1
